Experimental data from different studies.
Values joined by “and” are separate records of one study, mostly repeats; a detail may differ. ± marks the error that the study gave. Values after ≈ are worked out from the molar mass of the structure shown.

`Cc1cc(-c2ccc(C(=O)[C@@H]3CCCC[C@H]3C(=O)Nc3cnn4c3C(=O)NCC4)cc2)[nH]n1`: “cumulative recovery of radioactivity” 79.2% (human, faeces; oral, 200 mg, 0-240 h; reference: dose).
For `CCCCN1C(=O)c2cccc3c(NCCCCCCCCN4CCOCC4)ccc(c23)C1=O`, “molar extinction coefficient” read 12200 M⁻¹ cm⁻¹ (ethyl acetate).
`CC[C@H](C)[C@H](NC(=O)[C@H](Cc1ccc(O)cc1)NC(=O)[C@@H](NC(=O)[C@H](CCCNC(=N)N)NC(=O)[C@@H](N)CC(=O)O)C(C)C)C(=O)N[C@@H](Cc1c[nH]cn1)C(=O)N1CCC[C@H]1C(=O)O` gave a Cmax increase of roughly 10 fold (LC-MS/MS; Sprague-Dawley rat, plasma; sc, 10 mg/kg/day, day 27; reference: day 0).
`O=C(NS(=O)(=O)c1cccs1)c1cc2ccccc2n1Cc1ccc(Br)c2ccccc12` has a plasma concentration of 2250 ng/mL (Sprague-Dawley rat, male; oral, dose not given, 2 h).
`COc1cccc(OC)c1-c1cc(C(=O)NC2(C(=O)O)C3CC4CC(C3)CC2C4)nn1-c1ccc(C(=O)N(C)CCOCCOCCN(C)C(=O)[C@H](CCCCNC(=O)[C@H](CC(C)C)NC(=O)C2OC2C(=O)O)NC(=O)CN2CCN(CC(=O)[O-])CCN(CC(=O)[O-])CCN(CC(=O)[O-])CC2)cc1C(C)C.[177Lu+3]` (mixture of isomers) has a tumour-to-brain ratio of 72.6 (mouse, HT-29 xenograft; 24 h post injection, biodistribution; reference: tumour over brain uptake).
For `[123I]c1ccc2nc(-c3ccc(-n4ccnn4)nc3)cn2c1`, the tracer uptake was 0.111 %ID/g (male Wistar rat, kidney; intravenous, 4 MBq, 6 h).
Under “equilibrium concentration (Ce)”, `NC(=O)CN(CCc1ccc(Cl)cc1)C(=O)CN(CCc1ccc(Cl)cc1)C(=O)CN(CCc1ccc(Cl)cc1)C(=O)CN(CCc1ccc(Cl)cc1)C(=O)CN(CCc1ccc(Cl)cc1)C(=O)CN(CCc1ccc(Cl)cc1)C(=O)CN(CCC(=O)O)C(=O)CN(CCC(=O)O)C(=O)CN(CCC(=O)O)C(=O)CN(CCC(=O)O)C(=O)CN(CCC(=O)O)C(=O)CNCCC(=O)O` is recorded as 0.05 µM (in situ AFM; HCl solution on mica; pH 2.8, room temperature, 2D phase solubility).
`CCN(CC)c1ccc2c(c1)O[B-]1(c3c(C)cccc3C)OC(=O)C(c3ccccc3)=N[N+]1=C2` (stereo not shown) — result for “molar absorption coefficient”: 52000 M⁻¹ cm⁻¹ (toluene).
The bone uptake of `CN(CCCO)Cc1ccc(-c2noc(-c3ccc(OCC[18F])c(C(F)(F)F)c3)n2)cc1F` is reported as 0.27 ± 0.03 %ID/g (Sprague-Dawley rat, male, bone; 5 min post-injection).
`CC(=O)N[C@H](CC(=O)O)C(=O)N[C@H](Cc1c[nH]c2ccccc12)C(=O)N[C@H](Cc1ccccc1)C(=O)N[C@H](CCCCN)C(=O)N[C@H](C)C(=O)N[C@H](Cc1ccccc1)C(=O)N[C@H](Cc1ccc(O)cc1)C(=O)N[C@H](CC(=O)O)C(=O)N[C@H](CCCCN)C(=O)N[C@@H](C(=O)N[C@H](C)C(=O)N[C@H](CCC(=O)O)C(=O)N[C@H](CCCCN)C(=O)N[C@H](Cc1ccccc1)C(=O)N[C@H](CCCCN)C(=O)N[C@H](CCC(=O)O)C(=O)N[C@H](C)C(=O)N[C@H](Cc1ccccc1)C(N)=O)C(C)C` gave an AUC(0-t) of 37.7 ng·h/mL (high-risk statin-treated women with CHD, plasma; oral, dose not given, median, doses pooled).
`O=C1NC2(CC2)COc2ncc(F)cc2[C@H]2COCCN2c2ccn3ncc1c3n2` has a PCE/(PCE+NCE) ratio of 0.495 ± 0.041 (bone marrow micronucleus test; NIH mice, female; oral, 20 mg/kg/day, 3 days).
`CCCCN1C(=O)c2cccc3c(NCCCCCCN4CCOCC4)ccc(c23)C1=O` — result for “molar extinction coefficient”: 12500 M⁻¹ cm⁻¹ (chloroform).
For `CC(=O)N([O-])CCCCCNC(=O)CCC(=O)N([O-])CCCCCNC(=O)CCC(=O)N([O-])CCCCCN.[89Zr+4]`, the tracer uptake was 3.03 %ID/g (mouse, kidney; 24 h).
With `C/C(N)=N/C(=N\S(=O)(=O)c1ccc(C(F)(F)F)cc1)N1C[C@H](c2ccccc2)C(c2ccc(Cl)cc2)=N1` the Tmax was 2 h (male C57BL/6 mouse, muscle; intravenous, 10 mg/kg).
`C=CC(=O)N1CCCC(n2c(=O)c3ncccc3n(Cc3ccc(Oc4ccccc4)cc3)c2=O)C1` (stereo not shown) has a plasma concentration of 3940 ng/mL and 7610 ng/mL (male BALB/c mice, plasma; oral, 200 mg/kg, 4 h).
`O=C(Nc1cnccc1-c1ccc([18F])cc1)c1ccnc(NC(=O)C2CC2)c1` gave an SUV of 0.05 (FVB/NJ mice (both sexes), thalamus; intravenous, dose not given, 120 min).
`COCC1CN(C2CCN(c3cc(OC)c(Nc4ncc(Br)c(Nc5ccc6c(c5P(C)(C)=O)OCCO6)n4)cc3C)CC2)C1` — result for “Tmax at steady state”: 2 h (EGFR-mutant NSCLC patients, plasma; oral, 30 mg multiple doses, median).
`CCCC[C@H](OC(C)=O)c1ccccc1C(=O)O` has an AUC(0-inf) of 1900 ng·h/mL (beagle dog, both sexes, whole blood; intravenous, 1.5 mg/kg, day 7).
With `Clc1cccc(Nc2nc(NCc3ccccc3)c3ccccc3n2)c1` the solubility was 0.04 µg/mL (≈ 0.111 µM) (aqueous buffer; pH 5).
`COc1ccc(Nc2nc(Nc3ccc(OCCOCC[18F])cc3)ncc2Br)cc1` has a blood uptake of 2.86 ± 0.31 %ID/g (ICR mouse, S180 tumour, blood; intravenous, 30 min, blocking, together with: PF-562271 33 mg/kg oral one h before).
Under cardiac function, `CCC(CC)n1c(Cc2cccs2)nc2cc(C(=O)N[C@@H](CC(=O)O)c3ccccc3)ccc21` is recorded as “no effect” (echocardiography, item: LVEF, FS; mouse; dose not given, 2 wk).
For `CC[C@H](C)[C@H](NC(=O)[C@H](CCCCN)NC(=O)[C@H](CCC(=O)O)NC(=O)[C@H](CO)NC(=O)[C@H](Cc1ccccc1)NC(=O)[C@H](CC(C)C)NC(=O)[C@H](CCC(N)=O)NC(=O)[C@H](CO)NC(=O)[C@H](C)NC(=O)[C@H](CCCCN)NC(=O)[C@H](Cc1c[nH]cn1)NC(=O)[C@H](Cc1c[nH]c2ccccc12)NC(=O)[C@H](CCC(N)=O)NC(=O)[C@H](CCCCN)NC(=O)[C@H](CCCCN)NC(=O)[C@H](CC(C)C)NC(=O)CNC(=O)[C@H](C)NC(=O)[C@@H](NC(=O)[C@H](CO)NC(=O)[C@@H](N)CCSC)C(C)C)C(=O)N[C@@H](CO)C(=O)NCC(=O)N[C@@H](C)C(N)=O`, the fractional helicity was 3.6% (circular dichroism; phosphate buffer; pH 7.4).
For `COc1ccc2c(c1)CCn1c[n+]3c(c1-2)-c1ccc(OC)cc1CC3`, the Lymphocytes was 6.18 ± 7.97% (female NSG mice, blood; 6 mg/kg, day 20, 5 days per week).
Under blood concentration, `CCC1C=C(C)C(O)C(C)CC(OC)C2OC(O)(C(=O)C(=O)N3CCCCC3C(=O)OC(C(C)=CC3CCC(O)C(OC)C3)C(C)C(O)CC1=O)C(C)CC2OC` (stereo not shown) is recorded as “not detected” (C57BL/6 mouse, blood; topical, dose not given, 6 h, daily dosing for 4 days).
For `O=C(Nc1cnccc1-c1ccc([18F])nc1)c1ccnc(NC(=O)C2CC2)c1`, the SUV was 1.63 (mice, transgenic, GSK-3β, early-stage, small intestine; intravenous, dose not given, 120 min).
Under “urinary excretion (0-24 h)”, `CCCCCCCOc1ccc(CC[C@](N)(CO)COP(=O)(O)O)cc1C(F)(F)F` is recorded as 0% (healthy men, urine; oral, 0.5 mg once daily, day 1, fed state; reference: dose).
For `CCCCN1C(=O)c2cccc3c(NCCCCCN4CCOCC4)ccc(c23)C1=O`, “molar extinction coefficient” read 5380 M⁻¹ cm⁻¹ (ethyl acetate).
`Fc1ccc(/C=N/Nc2nnc(N/N=C/c3ccc(F)cc3)c3ccccc23)cc1` gave a haemolysis of 5.2% (haemolysis; human; 1 mM, 45 min).
Under “molar extinction coefficient”, `CCCCN1C(=O)c2cccc3c(NCCN4CCOCC4)ccc(c23)C1=O` is recorded as 6730 M⁻¹ cm⁻¹ (CHCl3).
`O=C(O)CCCOc1ccc([18F])cc1-c1cc(-c2ccccc2C(F)(F)F)n(-c2ccccc2)n1` gave a tissue uptake of 0.61 ± 0.1 %ID/g (mouse, blood; intravenous, dose not given, 5 min).
`C=CC(=O)Nc1cc(Nc2nccc(-c3c[nH]c4ccccc34)n2)c(OC)cc1N(C)CCN(C)C` has a recovery of 84.9% (storage stability; human plasma; 24 h, on ice, low QC level).
With `C=C(NC(=O)c1csc(-c2nc3c(cc2O)-c2nc(cs2)C(=O)NC(C(C)O)C(=O)NC(=C(C)OC)c2nc(cs2)C(=O)NC2c4nc(cs4)C(=O)NC(COC(=O)c4c5c6c(cccc6n4O)COC(=O)C(OC4CC(C)(O)C(N(C)C)C(C)O4)C2OC5)c2nc-3cs2)n1)C(N)=O` (stereo not shown) the MRT(0-t) was 3.7 h (ICR mice, Streptococcus pneumoniae ATCC 49169 infected, immunocompromised, blood; intravenous, 32 mg/kg/day once daily).
`CCCCN1C(=O)c2cccc3c(NCCCN4CCOCC4)ccc(c23)C1=O`: “molar extinction coefficient” 5270 M⁻¹ cm⁻¹ (DMSO).
`O=C([O-])CN1CCN(CC(=O)[O-])CCN(CC(=O)NCC2CCC(C(=O)NC(Cc3ccc4ccccc4c3)C(=O)NCCCCC(NC(=O)NC(CCC(=O)O)C(=O)O)C(=O)O)CC2)CCN(CC(=O)[O-])CC1.[68Ga+3]` (stereo not shown) — result for “mean tumour uptake”: 5.77 ± 0.5 %ID/g (micro-PET/CT; mouse 22Rv1 xenograft, tumour; 2 h post-injection).
For `CC[C@H](C)[C@@H]1NC(=O)[C@H](Cc2ccc(O)cc2)NC(=O)CCCSC[C@@H](C(=O)N(CC(=O)N[C@@H](CC(C)C)C(=O)NCC(N)=O)Cc2ccc(F)cc2)NC(=O)[C@H](CC(N)=O)NC(=O)[C@H](CCC(N)=O)NC1=O`, the Cmax was 0.229 ng/mL (healthy human, plasma; intranasal, 400 µg every 3 h, after first dose).
For `Cc1nc(N)nc2c1C(=O)N[C@@H](c1ccc(F)cc1-c1cccc(O[11CH3])n1)C2`, the SUV was 1.6 ± 0.1 (ex vivo biodistribution; healthy mice, kidneys; 60 min post-injection, baseline, vehicle pre-treatment).
The glucose excretion of `CC(C)[C@H](NC(=O)[C@H](Cc1c[nH]c2ccccc12)NC(=O)[C@H](CCCNC(=N)N)NC(=O)[C@H](CCCNC(=N)N)NC(=O)[C@@H](NC(=O)[C@@H](NC(=O)[C@H](CCCNC(=N)N)NC(=O)[C@@H](NC(=O)[C@@H](NC(=O)[C@H](CCCNC(=N)N)NC(=O)[C@H](CCCNC(=N)N)NC(=O)[C@@H](NC(=O)[C@H](Cc1c[nH]c2ccccc12)NC(=O)[C@H](CCCNC(=N)N)NC(=O)[C@H](CCCNC(=N)N)NC(=O)[C@@H](NC(=O)[C@H](CCCNC(=N)N)NC(=O)[C@H](CCCNC(=N)N)NC(=O)[C@@H](NC(=O)[C@H](Cc1c[nH]c2ccccc12)NC(=O)[C@H](CCCNC(=N)N)NC(=O)[C@@H](N)CCCNC(=N)N)C(C)C)C(C)C)C(C)C)C(C)C)C(C)C)C(C)C)C(C)C)C(=O)N[C@@H](CCCNC(=N)N)C(=O)N[C@@H](CCCNC(=N)N)C(=O)O` is reported as 50 µg/day/g body weight (CD1 mouse, urine; intravenous, 15 mg/kg, 6 h, [14C]-labelled compound).
With `CN([O-])C(=O)CN1CCNCCN(CC(=O)N(C)[O-])CC1.[89Zr+4]` the tracer uptake was 0.68 %ID/g (mouse, blood; intravenous, 1 h).
`C[C@@H](Nc1c(-c2c(F)cc(C#N)cc2F)c(Cl)nc2ncnn12)C(C)(C)C` — result for “insoluble Aβ42 level”: “decreased” (ELISA; 5XFAD transgenic mice, cortex; intraperitoneal, 1 mg/kg twice weekly, 4 weeks).
The plasma concentration of `O=C1CCC(N2Cc3cc(C(=O)O)c(F)cc3C2=O)C(=O)N1` (stereo not shown) is reported as 4.5 ± 1.3 ng/mL (cynomolgus monkey, male; oral, 0.3 mg/kg parent drug, 1 h).
`CCC(CC)CNC(=N)NC(=N)NCCCCCCNC(=N)NC(=N)NCC(CC)CC` has a scaled CLint of 1.83 mL/min/kg (metabolic stability; dog, liver microsomes; 2 µM).
For `CCCCN1C(=O)c2cccc3c(NCCCCN4CCOCC4)ccc(c23)C1=O`, “molar extinction coefficient” read 12000 M⁻¹ cm⁻¹ (water; pH 6.0).
For `CCC(C(=O)Nc1ccc(C(N)=O)c(F)c1)n1cc(OC)c(-c2cc(Cl)ccc2-n2cc(C(F)(F)F)nn2)cc1=O` (stereo not shown), “mild adverse events” read 14.3% (healthy male humans; 50 mg, maximum intensity, together with: antacid).

A few entries again:
`Cc1cc(-c2ccc(C(=O)[C@@H]3CCCC[C@H]3C(=O)Nc3cnn4c3C(=O)NCC4)cc2)[nH]n1`: “cumulative recovery of radioactivity” 79.2% (human, faeces; oral, 200 mg, 0-240 h; reference: dose).
`O=C(O)CCCOc1ccc([18F])cc1-c1cc(-c2ccccc2C(F)(F)F)n(-c2ccccc2)n1` gave a tissue uptake of 0.61 ± 0.1 %ID/g (mouse, blood; intravenous, dose not given, 5 min).
`COc1cccc(OC)c1-c1cc(C(=O)NC2(C(=O)O)C3CC4CC(C3)CC2C4)nn1-c1ccc(C(=O)N(C)CCOCCOCCN(C)C(=O)[C@H](CCCCNC(=O)[C@H](CC(C)C)NC(=O)C2OC2C(=O)O)NC(=O)CN2CCN(CC(=O)[O-])CCN(CC(=O)[O-])CCN(CC(=O)[O-])CC2)cc1C(C)C.[177Lu+3]` (mixture of isomers) has a tumour-to-brain ratio of 72.6 (mouse, HT-29 xenograft; 24 h post injection, biodistribution; reference: tumour over brain uptake).
